# Measured values gathered from unrelated publications.
# Each numbered part is a random draw from the data of one study; scales do not carry over between parts.
# UniProt P42336, sequence (whole entry, unmodified, looked up): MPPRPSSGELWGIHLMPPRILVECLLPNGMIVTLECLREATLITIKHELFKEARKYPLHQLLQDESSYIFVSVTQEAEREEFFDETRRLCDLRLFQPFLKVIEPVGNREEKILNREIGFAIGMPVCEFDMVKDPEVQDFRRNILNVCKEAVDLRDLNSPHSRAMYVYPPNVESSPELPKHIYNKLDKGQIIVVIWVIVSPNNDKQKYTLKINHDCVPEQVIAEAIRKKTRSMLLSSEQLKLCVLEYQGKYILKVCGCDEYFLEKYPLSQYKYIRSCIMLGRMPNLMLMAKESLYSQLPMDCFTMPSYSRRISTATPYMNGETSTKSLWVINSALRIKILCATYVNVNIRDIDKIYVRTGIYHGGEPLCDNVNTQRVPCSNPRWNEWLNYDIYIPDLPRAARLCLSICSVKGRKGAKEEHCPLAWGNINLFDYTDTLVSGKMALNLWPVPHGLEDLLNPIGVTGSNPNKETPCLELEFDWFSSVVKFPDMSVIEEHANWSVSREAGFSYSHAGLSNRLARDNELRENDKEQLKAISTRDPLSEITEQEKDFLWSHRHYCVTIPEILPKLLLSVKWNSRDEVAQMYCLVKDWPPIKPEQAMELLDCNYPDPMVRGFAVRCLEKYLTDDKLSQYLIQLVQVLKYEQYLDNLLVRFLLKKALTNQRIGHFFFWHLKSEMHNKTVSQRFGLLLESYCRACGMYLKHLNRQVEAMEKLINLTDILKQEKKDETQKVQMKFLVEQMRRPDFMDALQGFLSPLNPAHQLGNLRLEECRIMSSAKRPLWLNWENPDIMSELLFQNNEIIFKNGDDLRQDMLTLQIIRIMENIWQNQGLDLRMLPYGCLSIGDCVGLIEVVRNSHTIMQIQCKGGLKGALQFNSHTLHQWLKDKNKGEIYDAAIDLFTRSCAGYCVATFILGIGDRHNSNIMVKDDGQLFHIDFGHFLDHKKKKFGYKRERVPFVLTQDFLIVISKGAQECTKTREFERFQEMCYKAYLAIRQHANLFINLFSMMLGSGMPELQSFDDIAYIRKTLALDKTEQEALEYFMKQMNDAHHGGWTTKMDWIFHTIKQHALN
# UniProt P06493, sequence (whole entry, looked up): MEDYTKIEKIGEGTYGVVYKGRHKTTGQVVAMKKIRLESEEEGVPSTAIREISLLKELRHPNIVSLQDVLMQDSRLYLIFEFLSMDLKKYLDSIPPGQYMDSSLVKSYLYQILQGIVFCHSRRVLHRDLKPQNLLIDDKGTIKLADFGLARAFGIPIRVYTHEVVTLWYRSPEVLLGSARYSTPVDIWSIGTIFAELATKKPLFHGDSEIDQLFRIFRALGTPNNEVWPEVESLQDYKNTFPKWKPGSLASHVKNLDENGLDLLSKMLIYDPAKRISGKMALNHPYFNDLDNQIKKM
# UniProt O15146, sequence (whole entry, looked up): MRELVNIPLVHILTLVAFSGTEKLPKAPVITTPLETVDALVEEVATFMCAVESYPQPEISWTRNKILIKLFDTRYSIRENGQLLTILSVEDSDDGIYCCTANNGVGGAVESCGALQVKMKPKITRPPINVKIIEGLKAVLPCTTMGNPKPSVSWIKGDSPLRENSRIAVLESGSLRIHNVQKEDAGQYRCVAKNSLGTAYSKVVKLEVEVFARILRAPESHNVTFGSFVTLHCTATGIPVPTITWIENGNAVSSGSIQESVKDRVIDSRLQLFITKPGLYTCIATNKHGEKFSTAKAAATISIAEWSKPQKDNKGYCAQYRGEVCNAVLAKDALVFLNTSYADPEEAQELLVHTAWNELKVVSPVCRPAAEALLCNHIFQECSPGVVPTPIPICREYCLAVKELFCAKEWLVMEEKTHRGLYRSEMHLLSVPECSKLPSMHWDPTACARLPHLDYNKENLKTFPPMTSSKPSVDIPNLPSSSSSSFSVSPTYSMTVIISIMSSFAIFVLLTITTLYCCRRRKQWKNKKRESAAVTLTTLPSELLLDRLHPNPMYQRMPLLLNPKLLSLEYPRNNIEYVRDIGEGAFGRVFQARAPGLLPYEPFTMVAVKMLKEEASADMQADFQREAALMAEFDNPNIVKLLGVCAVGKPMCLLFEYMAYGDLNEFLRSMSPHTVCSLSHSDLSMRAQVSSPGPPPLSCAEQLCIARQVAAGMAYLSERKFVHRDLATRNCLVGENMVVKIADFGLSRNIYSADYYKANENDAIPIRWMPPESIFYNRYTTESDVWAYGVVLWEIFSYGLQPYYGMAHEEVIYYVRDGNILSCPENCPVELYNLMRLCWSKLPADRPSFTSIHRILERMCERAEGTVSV
# UniProt Q9HAZ1, sequence (whole entry, looked up): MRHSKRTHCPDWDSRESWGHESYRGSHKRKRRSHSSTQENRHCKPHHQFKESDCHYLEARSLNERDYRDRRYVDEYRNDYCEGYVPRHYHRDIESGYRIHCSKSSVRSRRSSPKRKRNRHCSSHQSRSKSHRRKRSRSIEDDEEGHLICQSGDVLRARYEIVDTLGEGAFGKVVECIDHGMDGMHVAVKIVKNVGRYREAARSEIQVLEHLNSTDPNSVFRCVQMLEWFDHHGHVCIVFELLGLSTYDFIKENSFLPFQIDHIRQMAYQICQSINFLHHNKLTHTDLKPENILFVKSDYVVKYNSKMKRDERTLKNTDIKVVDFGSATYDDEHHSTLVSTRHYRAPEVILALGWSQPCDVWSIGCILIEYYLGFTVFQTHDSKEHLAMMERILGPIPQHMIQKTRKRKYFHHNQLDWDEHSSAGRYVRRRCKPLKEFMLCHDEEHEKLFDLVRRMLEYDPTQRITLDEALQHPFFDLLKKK
# UniProt Q16539, sequence (whole entry, looked up): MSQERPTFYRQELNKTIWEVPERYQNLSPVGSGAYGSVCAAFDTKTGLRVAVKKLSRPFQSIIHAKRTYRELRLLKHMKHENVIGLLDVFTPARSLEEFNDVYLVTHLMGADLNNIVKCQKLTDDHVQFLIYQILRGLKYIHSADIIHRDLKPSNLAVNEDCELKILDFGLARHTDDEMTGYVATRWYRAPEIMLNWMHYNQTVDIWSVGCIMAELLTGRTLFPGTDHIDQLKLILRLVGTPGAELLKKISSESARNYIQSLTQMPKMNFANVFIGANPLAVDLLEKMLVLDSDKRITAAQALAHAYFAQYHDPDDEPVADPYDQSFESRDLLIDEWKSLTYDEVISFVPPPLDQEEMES
# UniProt Q8N568, sequence (whole entry, looked up): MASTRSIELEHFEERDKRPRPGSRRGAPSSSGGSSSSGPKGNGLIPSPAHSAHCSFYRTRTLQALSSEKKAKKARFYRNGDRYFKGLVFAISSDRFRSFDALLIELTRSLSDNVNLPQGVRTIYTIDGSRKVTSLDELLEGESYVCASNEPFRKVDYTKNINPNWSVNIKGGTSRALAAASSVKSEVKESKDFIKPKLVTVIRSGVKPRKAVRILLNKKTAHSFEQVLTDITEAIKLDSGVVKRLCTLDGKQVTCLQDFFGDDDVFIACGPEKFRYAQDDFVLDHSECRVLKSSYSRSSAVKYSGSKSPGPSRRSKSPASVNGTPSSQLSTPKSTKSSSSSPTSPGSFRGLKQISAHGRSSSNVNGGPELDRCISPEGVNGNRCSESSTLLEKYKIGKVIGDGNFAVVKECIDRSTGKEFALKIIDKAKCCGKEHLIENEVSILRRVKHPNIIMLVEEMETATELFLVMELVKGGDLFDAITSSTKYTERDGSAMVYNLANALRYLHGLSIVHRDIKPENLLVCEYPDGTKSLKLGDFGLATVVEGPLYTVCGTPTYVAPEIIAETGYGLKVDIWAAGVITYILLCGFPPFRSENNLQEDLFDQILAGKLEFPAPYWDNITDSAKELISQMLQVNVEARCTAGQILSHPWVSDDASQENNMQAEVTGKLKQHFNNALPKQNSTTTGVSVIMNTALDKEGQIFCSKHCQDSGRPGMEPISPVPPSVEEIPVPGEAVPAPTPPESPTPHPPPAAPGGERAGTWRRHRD
# UniProt P31751, sequence (whole entry, looked up): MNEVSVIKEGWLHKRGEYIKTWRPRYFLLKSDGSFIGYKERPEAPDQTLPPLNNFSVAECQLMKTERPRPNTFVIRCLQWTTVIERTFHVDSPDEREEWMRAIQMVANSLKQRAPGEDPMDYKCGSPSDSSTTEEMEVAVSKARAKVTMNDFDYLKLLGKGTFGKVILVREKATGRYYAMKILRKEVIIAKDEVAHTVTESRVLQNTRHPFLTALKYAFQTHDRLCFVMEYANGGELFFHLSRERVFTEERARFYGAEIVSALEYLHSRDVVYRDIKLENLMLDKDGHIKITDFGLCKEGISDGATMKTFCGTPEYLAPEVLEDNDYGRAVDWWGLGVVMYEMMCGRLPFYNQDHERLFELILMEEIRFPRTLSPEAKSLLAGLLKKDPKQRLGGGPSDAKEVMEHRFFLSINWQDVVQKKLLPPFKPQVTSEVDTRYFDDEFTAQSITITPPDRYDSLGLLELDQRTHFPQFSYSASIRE

# Block 1 — host: human; matrix: microsomes or S9; concentration: 2 µM; time: 0.5 h
Structure (SMILES),remaining compound [%]
COc1cc(-c2nn([C@H]3CC[C@H](N4CCN(C(C)=O)CC4)CC3)c3ncnc(N)c23)ccc1NC(=O)c1cc2ccccc2n1C,93.2
Oc1ccc(C2c3c(-c4ccc(F)cc4)nnc(O)c3Nc3nnnn32)cc1 (stereo not shown),60.2
O=C(O)c1ccc(-c2noc3ccc(-c4ccc(O)cc4)cc23)cc1,72.5
CC/C(=C(\c1ccccc1)c1ccc(OCCN(C)C)cc1)c1ccccc1,55.6
O=C(O)c1nn(-c2ccccc2)nc1-c1nn(-c2ccccc2)nc1C(=O)O,59.8
Cc1ccc2c(C)c(C(=O)Nc3ccc4c(c3)NC(=O)C(C)O4)oc2c1 (stereo not shown),> 100
CC(C(=O)Nc1nnn[nH]1)c1ccc(-c2ccccc2)c(F)c1 (stereo not shown),> 100
CCOc1cc(=O)n2c(c1C(=O)N1CCN(c3cccc(Cl)c3)CC1)CCCC2,67

# Block 2 — read-out: cell-free assay; method: competition with immobilised ligand; concentration: 0.1 µM
# Structure (SMILES): C[C@@H]1CN(c2cc(-c3n[nH]c4ccc(OC5(C)CC5)cc34)ncn2)C[C@H](C)O1
target,remaining binding
"PIK3CA (Homo sapiens, UniProt P42336, E542K)",81%
"INSRR (Homo sapiens, UniProt P14616)",57%
"MUSK (Homo sapiens, UniProt O15146)",56%
"PIK3CA (Homo sapiens, UniProt P42336, E545K)",65%
"Tyrosine-protein kinase JAK2, JH1 (JAK2, Homo sapiens, UniProt O60674)",77%
"Ribosomal protein S6 kinase alpha-4, C-terminal kinase domain (RPS6KA4, Homo sapiens, UniProt O75676)",75%
"ALK (Homo sapiens, UniProt Q9UM73, L1196M)",78%

# Block 3 — read-out: RNA clamping; method: fluorescence polarization; concentration: concentration not given; with: FAM-labelled poly r(AG)8 RNA; reading: higher = more clamping
# Target: Eukaryotic initiation factor 4A-I (EIF4A1, Homo sapiens, UniProt P60842)
# UniProt P60842, sequence (whole entry, looked up): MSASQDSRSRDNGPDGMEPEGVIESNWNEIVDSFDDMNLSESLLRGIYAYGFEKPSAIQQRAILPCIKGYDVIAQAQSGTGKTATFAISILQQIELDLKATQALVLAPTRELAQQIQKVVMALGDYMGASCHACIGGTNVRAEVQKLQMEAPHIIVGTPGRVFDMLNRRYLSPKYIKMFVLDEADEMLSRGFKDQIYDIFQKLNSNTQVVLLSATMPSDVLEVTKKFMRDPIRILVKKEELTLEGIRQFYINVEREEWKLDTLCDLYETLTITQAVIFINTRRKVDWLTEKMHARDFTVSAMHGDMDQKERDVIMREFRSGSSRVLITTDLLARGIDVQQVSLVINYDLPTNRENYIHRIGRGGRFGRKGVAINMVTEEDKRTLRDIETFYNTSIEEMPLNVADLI
SMILES,fluorescence polarization change [mP]
COc1ccc([C@@]23Oc4cc(OC)cc(OC)c4[C@]2(O)C(=O)[C@H](C(=O)NCCCC2(C)OCCO2)[C@H]3c2ccccc2)cc1,62.8
COC(=O)[C@@H]1[C@@H](c2ccccc2)[C@]2(c3ccc(OC)cc3)Oc3cc(OC)cc(OC)c3[C@@]1(O)C2(O)O,2.7
COc1cc(F)cc2c1[C@]1(O)[C@H](O)[C@@H](C#N)[C@H](c3ccccc3)[C@]1(c1ccc(Br)cc1)O2,11.7
COc1ccc([C@]23Oc4cc(OC)cc(OC)c4[C@](O)(C2O)[C@H](c2c(F)c(F)c(F)c(F)c2F)[C@H]3c2ccccc2)cc1 (stereo partly shown),8.1
COc1ccc([C@@]23Oc4cc(OC)cc(OC)c4[C@]2(O)C2=NNC(=O)C2=C3c2ccccc2)cc1,9.6
COC(=O)[C@@H]1[C@@H](O)[C@@]2(O)c3c(OC)cc(OS(=O)(=O)c4ccc(C)cc4)cc3O[C@@]2(c2ccc(Br)cc2)[C@H]1c1ccccc1,7.3
COc1ccc([C@@]23Oc4cc(OC)cc(OC)c4[C@]2(O)[C@H](O)[C@H](C(=O)c2ccc(C)o2)[C@H]3c2ccccc2)cc1,15.7

# Block 4 — read-out: enzyme activity; action: inhibitor; concentration: 0.5 µM; relative to: control
# Structure (SMILES): O=c1c(-c2ccc(F)cc2)c(-c2ccncc2)[nH]n1-c1ccc(Cl)cc1
target,remaining activity
"MINK1 (Homo sapiens, UniProt Q8N4C8)",97.3%
"PLK3 (Homo sapiens, UniProt Q9H4B4)",96.3%
"CAMK4 (Homo sapiens, UniProt Q16566)",104%
"ROCK1 (Homo sapiens, UniProt Q13464)",109%
"DDR2 (Homo sapiens, UniProt Q16832)",90.6%
"CLK3 (Homo sapiens, UniProt P49761)",88.7%
"AKT2 (Homo sapiens, UniProt P31751)",97.8%
"CDC42BPB (Homo sapiens, UniProt Q9Y5S2)",103%
"PNCK (Homo sapiens, UniProt Q6P2M8)",92%
"MAPK14 (Homo sapiens, UniProt Q16539)",11.2%
"CLK4 (Homo sapiens, UniProt Q9HAZ1)",78.9%
"MAPK11 (Homo sapiens, UniProt Q15759)",55.9%
"Cyclin-dependent kinase 1, with cyclin A (CDK1, Homo sapiens, UniProt P06493)",83.1%
"PRKG2 (Homo sapiens, UniProt Q13237)",110%
"DCLK2 (Homo sapiens, UniProt Q8N568)",99.9%

# A few entries again (block 1):
Structure (SMILES),remaining compound [%]
Oc1ccc(C2c3c(-c4ccc(F)cc4)nnc(O)c3Nc3nnnn32)cc1 (stereo not shown),60.2
COc1cc(-c2nn([C@H]3CC[C@H](N4CCN(C(C)=O)CC4)CC3)c3ncnc(N)c23)ccc1NC(=O)c1cc2ccccc2n1C,93.2
CCOc1cc(=O)n2c(c1C(=O)N1CCN(c3cccc(Cl)c3)CC1)CCCC2,67
CC/C(=C(\c1ccccc1)c1ccc(OCCN(C)C)cc1)c1ccccc1,55.6
CC(C(=O)Nc1nnn[nH]1)c1ccc(-c2ccccc2)c(F)c1 (stereo not shown),> 100
O=C(O)c1ccc(-c2noc3ccc(-c4ccc(O)cc4)cc23)cc1,72.5
